Experimental data collected from several papers.
A part holds a random share of what one study measured. “And” joins repeats or separate records; there may be more than shown.
UniProt Q5XXA6, sequence (whole entry, unmodified, looked up): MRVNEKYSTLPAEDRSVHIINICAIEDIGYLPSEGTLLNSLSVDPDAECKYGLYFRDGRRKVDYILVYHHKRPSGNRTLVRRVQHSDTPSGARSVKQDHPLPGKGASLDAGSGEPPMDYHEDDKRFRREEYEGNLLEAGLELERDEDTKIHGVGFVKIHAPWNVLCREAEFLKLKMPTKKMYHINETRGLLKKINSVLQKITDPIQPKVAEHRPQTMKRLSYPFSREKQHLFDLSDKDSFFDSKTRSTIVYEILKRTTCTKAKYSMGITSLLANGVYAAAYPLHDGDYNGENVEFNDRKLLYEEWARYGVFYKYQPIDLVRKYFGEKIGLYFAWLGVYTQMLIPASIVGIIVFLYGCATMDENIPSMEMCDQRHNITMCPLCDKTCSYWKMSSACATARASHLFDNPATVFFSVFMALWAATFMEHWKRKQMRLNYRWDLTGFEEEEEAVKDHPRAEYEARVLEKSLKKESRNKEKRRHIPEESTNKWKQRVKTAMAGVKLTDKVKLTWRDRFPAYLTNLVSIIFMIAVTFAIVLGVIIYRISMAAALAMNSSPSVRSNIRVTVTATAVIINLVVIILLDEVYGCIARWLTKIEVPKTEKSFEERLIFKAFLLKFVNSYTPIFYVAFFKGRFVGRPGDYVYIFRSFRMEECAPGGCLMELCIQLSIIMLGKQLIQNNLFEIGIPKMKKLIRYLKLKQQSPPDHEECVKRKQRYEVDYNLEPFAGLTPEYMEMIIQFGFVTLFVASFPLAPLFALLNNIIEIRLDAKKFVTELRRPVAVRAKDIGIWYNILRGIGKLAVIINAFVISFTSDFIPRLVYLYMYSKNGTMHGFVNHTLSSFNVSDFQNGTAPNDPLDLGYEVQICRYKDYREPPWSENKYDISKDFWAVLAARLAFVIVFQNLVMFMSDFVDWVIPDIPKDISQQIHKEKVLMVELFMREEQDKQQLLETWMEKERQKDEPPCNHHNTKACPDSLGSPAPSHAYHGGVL
UniProt P42680, sequence (whole entry, looked up): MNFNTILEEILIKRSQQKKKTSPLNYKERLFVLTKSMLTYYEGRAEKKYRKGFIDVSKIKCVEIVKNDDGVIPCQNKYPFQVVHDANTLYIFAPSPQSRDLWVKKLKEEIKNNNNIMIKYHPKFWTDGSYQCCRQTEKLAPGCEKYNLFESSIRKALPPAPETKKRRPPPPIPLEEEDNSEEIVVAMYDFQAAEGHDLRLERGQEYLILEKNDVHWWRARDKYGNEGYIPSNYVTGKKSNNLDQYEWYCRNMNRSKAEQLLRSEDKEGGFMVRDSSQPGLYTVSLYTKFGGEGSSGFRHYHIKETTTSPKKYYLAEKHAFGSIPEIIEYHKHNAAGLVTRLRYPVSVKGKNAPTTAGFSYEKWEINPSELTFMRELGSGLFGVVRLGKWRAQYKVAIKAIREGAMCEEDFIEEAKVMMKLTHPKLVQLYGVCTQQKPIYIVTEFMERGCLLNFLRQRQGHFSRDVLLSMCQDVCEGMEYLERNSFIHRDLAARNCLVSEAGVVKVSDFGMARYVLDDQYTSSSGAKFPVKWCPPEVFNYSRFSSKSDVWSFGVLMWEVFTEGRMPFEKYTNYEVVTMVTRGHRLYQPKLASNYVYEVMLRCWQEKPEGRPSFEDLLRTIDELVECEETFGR
UniProt Q96Q40, sequence (whole entry, looked up): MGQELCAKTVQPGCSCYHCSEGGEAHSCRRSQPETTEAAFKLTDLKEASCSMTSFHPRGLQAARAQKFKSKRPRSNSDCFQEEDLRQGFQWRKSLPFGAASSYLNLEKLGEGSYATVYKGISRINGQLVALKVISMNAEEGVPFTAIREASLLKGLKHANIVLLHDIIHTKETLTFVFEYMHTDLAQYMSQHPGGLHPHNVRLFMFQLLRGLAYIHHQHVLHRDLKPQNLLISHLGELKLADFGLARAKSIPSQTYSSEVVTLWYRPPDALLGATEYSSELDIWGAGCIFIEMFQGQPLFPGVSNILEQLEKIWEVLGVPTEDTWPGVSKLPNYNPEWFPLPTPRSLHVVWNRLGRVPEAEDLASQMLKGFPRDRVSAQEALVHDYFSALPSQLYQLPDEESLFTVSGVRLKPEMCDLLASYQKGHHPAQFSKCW
UniProt Q13153, sequence (whole entry, looked up): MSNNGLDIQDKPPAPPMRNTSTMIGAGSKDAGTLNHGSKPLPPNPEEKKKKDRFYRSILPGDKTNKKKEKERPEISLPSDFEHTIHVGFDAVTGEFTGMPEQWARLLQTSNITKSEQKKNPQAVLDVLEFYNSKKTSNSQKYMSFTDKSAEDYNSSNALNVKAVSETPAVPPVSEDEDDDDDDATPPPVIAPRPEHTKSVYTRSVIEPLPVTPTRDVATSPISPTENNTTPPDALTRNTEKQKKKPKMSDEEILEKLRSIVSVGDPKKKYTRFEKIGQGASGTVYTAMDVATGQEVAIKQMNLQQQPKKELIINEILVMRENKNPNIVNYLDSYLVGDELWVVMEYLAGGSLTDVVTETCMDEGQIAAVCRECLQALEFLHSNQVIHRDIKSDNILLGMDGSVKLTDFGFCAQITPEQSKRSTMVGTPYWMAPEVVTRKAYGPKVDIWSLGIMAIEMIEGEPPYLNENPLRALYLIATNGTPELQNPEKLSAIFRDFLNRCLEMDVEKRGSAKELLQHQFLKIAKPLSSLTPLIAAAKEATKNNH
UniProt Q14164, sequence (whole entry, looked up): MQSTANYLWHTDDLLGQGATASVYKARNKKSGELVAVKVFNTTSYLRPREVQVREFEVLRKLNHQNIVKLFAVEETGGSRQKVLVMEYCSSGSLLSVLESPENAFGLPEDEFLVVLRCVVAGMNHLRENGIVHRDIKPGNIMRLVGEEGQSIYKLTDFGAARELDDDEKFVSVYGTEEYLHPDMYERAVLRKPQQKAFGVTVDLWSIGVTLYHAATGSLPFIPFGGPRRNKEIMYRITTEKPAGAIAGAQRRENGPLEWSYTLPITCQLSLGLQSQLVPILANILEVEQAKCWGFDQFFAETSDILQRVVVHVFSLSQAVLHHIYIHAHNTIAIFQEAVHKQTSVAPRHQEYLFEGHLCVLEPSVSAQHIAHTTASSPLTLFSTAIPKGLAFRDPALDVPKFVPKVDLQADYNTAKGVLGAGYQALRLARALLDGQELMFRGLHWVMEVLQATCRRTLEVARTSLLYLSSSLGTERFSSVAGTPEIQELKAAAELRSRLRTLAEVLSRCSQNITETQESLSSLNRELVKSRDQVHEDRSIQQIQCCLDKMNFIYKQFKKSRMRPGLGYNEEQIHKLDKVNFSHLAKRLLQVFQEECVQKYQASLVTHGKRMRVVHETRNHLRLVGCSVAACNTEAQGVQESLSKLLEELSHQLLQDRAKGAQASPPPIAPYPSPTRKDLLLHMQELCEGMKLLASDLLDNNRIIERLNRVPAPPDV
UniProt P16591, sequence (whole entry, looked up): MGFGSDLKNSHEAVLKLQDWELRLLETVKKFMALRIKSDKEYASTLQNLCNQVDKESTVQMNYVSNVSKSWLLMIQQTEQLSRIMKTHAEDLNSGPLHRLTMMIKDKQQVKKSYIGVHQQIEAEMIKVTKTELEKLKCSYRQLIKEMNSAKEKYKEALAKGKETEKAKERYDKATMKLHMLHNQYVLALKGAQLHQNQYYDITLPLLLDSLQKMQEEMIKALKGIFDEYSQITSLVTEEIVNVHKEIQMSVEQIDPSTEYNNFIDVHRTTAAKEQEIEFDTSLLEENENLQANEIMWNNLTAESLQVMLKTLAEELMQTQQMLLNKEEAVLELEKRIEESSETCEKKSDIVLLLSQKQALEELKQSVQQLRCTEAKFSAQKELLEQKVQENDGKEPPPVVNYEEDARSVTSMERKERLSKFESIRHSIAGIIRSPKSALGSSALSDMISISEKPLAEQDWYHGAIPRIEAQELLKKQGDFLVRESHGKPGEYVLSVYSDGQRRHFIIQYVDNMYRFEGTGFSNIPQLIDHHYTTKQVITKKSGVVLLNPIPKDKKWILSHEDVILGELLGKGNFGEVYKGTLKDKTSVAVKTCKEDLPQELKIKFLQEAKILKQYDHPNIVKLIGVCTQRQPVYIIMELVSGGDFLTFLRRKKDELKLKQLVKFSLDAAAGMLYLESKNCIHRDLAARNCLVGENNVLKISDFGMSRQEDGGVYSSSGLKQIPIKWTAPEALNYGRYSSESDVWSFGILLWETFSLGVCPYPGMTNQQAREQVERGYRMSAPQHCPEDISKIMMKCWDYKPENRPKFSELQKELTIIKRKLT
UniProt P49137, sequence (whole entry, looked up): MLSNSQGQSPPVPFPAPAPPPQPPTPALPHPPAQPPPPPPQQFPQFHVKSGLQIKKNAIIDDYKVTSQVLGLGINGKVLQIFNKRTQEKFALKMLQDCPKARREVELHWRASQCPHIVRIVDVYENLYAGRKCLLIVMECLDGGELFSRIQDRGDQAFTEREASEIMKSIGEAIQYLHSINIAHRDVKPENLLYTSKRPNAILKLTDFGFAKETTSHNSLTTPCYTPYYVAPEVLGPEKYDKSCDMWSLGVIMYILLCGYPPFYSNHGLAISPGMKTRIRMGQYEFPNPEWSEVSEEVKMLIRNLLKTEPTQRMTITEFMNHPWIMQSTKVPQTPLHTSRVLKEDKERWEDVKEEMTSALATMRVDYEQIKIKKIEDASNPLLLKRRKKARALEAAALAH

Set 1 — species: C57BL/6 CES1-/- mice, EL4 tumour; matrix: EL4 tumour; route: subcutaneous; dose: 0.3 mg/kg/day DON equivalent; time: 5 days
SMILES: CC(=O)N[C@@H](Cc1c[nH]c2ccccc12)C(=O)N[C@@H](CCC(=O)C=[N+]=[N-])C(=O)OC(C)C
assay | conditions | how to read | metabolite peak intensity
LC-MS/MS metabolomics, refers to: mannose |  | higher = more metabolite | 5.32e+06 a.u. and 5.37e+06 a.u. and 5.42e+06 a.u. and 6.52e+06 a.u. and 5.01e+06 a.u. and 4.24e+06 a.u.
LC-MS/MS metabolomics, refers to: 3-amino-2-piperidone | normalised to tissue mass | higher = more metabolite | 1.43e+06 a.u. and 778000 a.u. and 700000 a.u. and 794000 a.u. and 996000 a.u. and 953000 a.u.
UPLC-MS/MS, refers to: 6-phosphogluconate |  |  | 319000 a.u. and 224000 a.u. and 297000 a.u. and 246000 a.u. and 225000 a.u. and 324000 a.u.
UPLC-MS/MS metabolomics, refers to: N-monomethylarginine | normalised to tissue mass | higher = more metabolite | 3.79e+07 a.u. and 3.11e+07 a.u. and 2.98e+07 a.u. and 3.89e+07 a.u. and 3.38e+07 a.u. and 3.65e+07 a.u.
LC-MS/MS metabolomics, refers to: 4-hydroxynonenal-glutathione | normalised to tissue mass | higher = more metabolite | 201000 a.u. and 227000 a.u. and 77300 a.u. and 259000 a.u. and 443000 a.u. and 404000 a.u.
LC-MS/MS metabolomics, refers to: o-tyrosine |  | higher = more metabolite | 334000 a.u. and 710000 a.u. and 842000 a.u. and 1.21e+06 a.u. and 458000 a.u. and 418000 a.u.
UPLC-MS/MS metabolomics, refers to: glucosamine 6-phosphate | normalised to tissue mass |  | 8.01e+07 a.u. and 9.86e+07 a.u. and 9.24e+07 a.u. and 1.01e+08 a.u. and 8.8e+07 a.u. and 6.91e+07 a.u.

Set 2 — action: antagonist
Target: Beta-1 adrenergic receptor (ADRB1, Homo sapiens, UniProt P08588)
UniProt P08588, sequence (whole entry, looked up): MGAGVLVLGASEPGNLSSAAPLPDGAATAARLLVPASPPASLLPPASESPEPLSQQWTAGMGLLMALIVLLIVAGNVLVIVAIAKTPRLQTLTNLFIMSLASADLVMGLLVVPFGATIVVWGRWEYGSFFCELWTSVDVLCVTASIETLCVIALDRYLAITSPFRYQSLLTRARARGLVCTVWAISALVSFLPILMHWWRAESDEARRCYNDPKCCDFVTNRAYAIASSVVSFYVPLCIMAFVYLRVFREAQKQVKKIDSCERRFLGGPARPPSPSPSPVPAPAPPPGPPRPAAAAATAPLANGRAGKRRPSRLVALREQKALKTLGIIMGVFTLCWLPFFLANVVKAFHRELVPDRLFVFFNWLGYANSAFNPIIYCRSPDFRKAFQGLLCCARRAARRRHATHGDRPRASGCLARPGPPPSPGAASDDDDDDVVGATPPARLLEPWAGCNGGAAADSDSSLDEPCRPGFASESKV
Structure (SMILES) | IC50 [µM]
O=C1c2c(nc(CNCc3cccc(Cl)c3)n2Cc2ccccc2)NCCN1CCOc1ccccc1 | ≥ 100
COc1ccccc1N1CCN([S+](=O)([O-])c2cc(C)c(C)cc2OC)CC1 | ≥ 100
O=Cc1cc2ccccc2nc1N1CCOCC1 | ≥ 100
Cc1ccc(C)c(-c2cc(C)c3ccccc3n2)c1 | ≥ 100
O=C1c2ccc3ccccc3c2C(=O)C1c1cc(O)c2ccccc2n1 (stereo not shown) | ≥ 100

Set 3 — species: human; matrix: microsomes or S9; concentration: 2 µM; time: 0.5 h
SMILES | remaining compound
CN1C(=O)C(CC(=O)N2CCN(c3ccccn3)CC2)=C2CCCCC21 (stereo not shown) | 20.4%
CC(C)c1ccc(CNC(=O)CCCCNS(=O)(=O)c2ccccc2)cc1 | 26.7%
CSc1cccc(NC(=O)N2Cc3c(sc4c3CCCC4)-n3cccc3C2C)c1 (stereo not shown) | 8.41%
CC(C)(C)CCN1CCN(C(=O)c2nccnc2N)CC1 | 99.1%
Cc1ccc(C(C)NS(=O)(=O)c2ccc(F)c(F)c2)c(C)c1 (stereo not shown) | < 1%
CCc1cc2c(Nc3ccc(OC)cc3OC)ncnc2s1 | 5.3%
O=C(OC1CCc2ccccc2C1=O)c1ccccc1O (stereo not shown) | 88.2%

Set 4 — Compound: C=CCc1ccc(O)c(-c2ccc(O)c(CC=C)c2)c1; read-out: chloride current; technique: whole-cell voltage clamp
target | assay | conditions | IC50 [µM]
Anoctamin-1 (ANO1, Homo sapiens, UniProt Q5XXA6, del476-501/F628Y) | inhibitor | 20 mV holding voltage | 27.5
Anoctamin-1 (ANO1, Homo sapiens, UniProt Q5XXA6, del476-501/F628W) | inhibitor | 60 mV holding voltage | 12.9
Anoctamin-1 (ANO1, Homo sapiens, UniProt Q5XXA6, del476-501) | inhibitor | wild type, with: 300 nM Ca2+ | 6.37
Anoctamin-1 (ANO1, Homo sapiens, UniProt Q5XXA6, del476-501/F807A) |  | membrane voltage -20 mV | 26.7
Anoctamin-1 (ANO1, Homo sapiens, UniProt Q5XXA6, del476-501/R561A) |  | membrane voltage 80 mV | 6.71

Set 5 — read-out: cell-free assay; technique: competition with immobilised ligand; concentration: 1 µM
Structure (SMILES): Cc1cc(NC(=O)c2cccc(S(F)(F)(F)(F)F)c2)cc(-n2ccn3nc(-c4cccnc4)cc23)c1
target | remaining binding
LTK (Homo sapiens, UniProt P29376) | 100%
PAK1 (Homo sapiens, UniProt Q13153) | 90.9%
EPHB2 (Homo sapiens, UniProt P29323) | 100%
KDR (Homo sapiens, UniProt P35968) | 68.3%
BLK (Homo sapiens, UniProt P51451) | 100%
FLT3 (Homo sapiens, UniProt P36888, D835Y) | 100%
PKN2 (Homo sapiens, UniProt Q16513) | 100%
CDK15 (Homo sapiens, UniProt Q96Q40) | 59.9%
DCLK2 (Homo sapiens, UniProt Q8N568) | 100%
NEK4 (Homo sapiens, UniProt P51957) | 92.9%
CDK2 (Homo sapiens, UniProt P24941) | 100%
MAP2K6 (Homo sapiens, UniProt P52564) | 100%
EGFR (Homo sapiens, UniProt P00533, L858R/T790M) | 97.6%
CLK2 (Homo sapiens, UniProt P49760) | 100%
EGFR (Homo sapiens, UniProt P00533, del747-752/P753S) | 100%
Tyrosine-protein kinase ABL1, phosphorylated (ABL1, Homo sapiens, UniProt P00519) | 73.6%
KIT (Homo sapiens, UniProt P10721, D816H) | 73.1%
IKBKE (Homo sapiens, UniProt Q14164) | 100%
FLT3 (Homo sapiens, UniProt P36888, D835V) | 100%
TEC (Homo sapiens, UniProt P42680) | 100%
Tyrosine-protein kinase ABL1, phosphorylated (ABL1, Homo sapiens, UniProt P00519, Y253F) | 100%
MAPKAPK2 (Homo sapiens, UniProt P49137) | 100%
FER (Homo sapiens, UniProt P16591) | 59.4%
FLT3 (Homo sapiens, UniProt P36888, K663Q) | 100%
FLT3 (Homo sapiens, UniProt P36888, ITD) | 95.8%

Set 6 — cell line: mouse MPNST tumor cells; technique: high-content immunofluorescence imaging; refers to: nuclear SOX9; concentration: 10 µM; time: 12 h; notes: mean of 2 replicates; baseline: DMSO control; reading: higher = more nuclear SOX9
Structure (SMILES) | nuclear SOX9 intensity
Brc1ccc(CCC2(Cn3ccnc3)OCCO2)cc1 | 96.8 % of DMSO
Cc1ccccc1NC(=O)Nc1ccc(CC(=O)N(C)[C@@H](CC(C)C)C(=O)NCC[C@H](NC(=O)[C@@H]2CCCN2S(=O)(=O)c2cc(Cl)cc(Cl)c2)C(=O)O)cc1 | 94.6 % of DMSO
C[C@@H]1C[C@H]2[C@@H]3C[C@H](F)C4=CC(=O)C=C[C@]4(C)[C@@]3(Cl)[C@@H](O)C[C@]2(C)[C@H]1C(=O)COC(=O)C(C)(C)C | 74.3 % of DMSO
O=C(NC12CC3CC(CC(C3)C1)C2)c1cnc2ccccc2n1 | 112 % of DMSO
CCCCNc1nc(N)c2[nH]c(=O)n(Cc3ccc(OCCN(C)C)nc3)c2n1 | 102 % of DMSO
O=C(NCc1ccc(OC(F)(F)F)cc1)C1c2ccccc2C(=O)N1C1CCOCC1 (stereo not shown) | 105 % of DMSO

Some of these lines once more (set 6):
Structure (SMILES) | nuclear SOX9 intensity
Brc1ccc(CCC2(Cn3ccnc3)OCCO2)cc1 | 96.8 % of DMSO
O=C(NCc1ccc(OC(F)(F)F)cc1)C1c2ccccc2C(=O)N1C1CCOCC1 (stereo not shown) | 105 % of DMSO
O=C(NC12CC3CC(CC(C3)C1)C2)c1cnc2ccccc2n1 | 112 % of DMSO
Cc1ccccc1NC(=O)Nc1ccc(CC(=O)N(C)[C@@H](CC(C)C)C(=O)NCC[C@H](NC(=O)[C@@H]2CCCN2S(=O)(=O)c2cc(Cl)cc(Cl)c2)C(=O)O)cc1 | 94.6 % of DMSO
C[C@@H]1C[C@H]2[C@@H]3C[C@H](F)C4=CC(=O)C=C[C@]4(C)[C@@]3(Cl)[C@@H](O)C[C@]2(C)[C@H]1C(=O)COC(=O)C(C)(C)C | 74.3 % of DMSO
CCCCNc1nc(N)c2[nH]c(=O)n(Cc3ccc(OCCN(C)C)nc3)c2n1 | 102 % of DMSO
